Measurements of several laboratories.
Lines come from different studies, so protocols differ. ± gives the spread as reported.
T1: ATRX ADD domain 167-289 K251R/F284Y (Homo sapiens); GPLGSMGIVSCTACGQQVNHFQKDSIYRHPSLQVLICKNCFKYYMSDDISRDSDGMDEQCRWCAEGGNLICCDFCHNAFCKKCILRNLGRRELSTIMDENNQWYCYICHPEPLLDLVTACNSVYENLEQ
B1: CFH 1108-1231 R1203S (Homo sapiens, UniProt P08603); sequence looked up; chain KCGPPPPIDNGDITSFPLSVYAPASSVEYQCQNLYQLEGNKRITCRNGQWSEPPKCLHPCVISREIMENYNIALRWTAKQKLYSRTGESVEFVCKSGYRLSSRSHTLRTTCWDGKLEYPTCAKR
B2: PLXND1 1553-1678 S1614V/T1615A (Homo sapiens, UniProt Q9Y4D7); chain AKPRNLNVSFQGCGMDSLSVRAMDTDTLTQVKEKILEAFCKNVPYSQWPRAEDVDLEWFASVAQSYILRDLDDTSVVEDGRKKLNTLAHYKIPEGASLAMSLIDKKDNTLGRVKDLDTEKYFHLVL
B3: Pigr 19-135 (Mus musculus, UniProt O70570); chain KSPIFGPQEVSSIEGDSVSITCYYPDTSVNRHTRKYWCRQGASGMCTTLISSNGYLSKEYSGRANLINFPENNTFVINIEQLTQDDTGSYKCGLGTSNRGLSFDVSLEVSQVPELPS
B4: TWF1 (Saccharomyces cerevisiae, UniProt P53250); SNAP-Surface-549 label; chain MSTQSGIVAEQALLHSLNENLSADGIVIIIAKISPDSTSVHQTQVARSFEELVQLASQEREPLYIFYKPEGLDKYFFVSFIPDGSPVRSRMLYASTKNTLARQVGSNSLSTEQPLITDAQDLVDLKNFDSARPAGQNKPLTHDEEMQIEINKQQALLRKNTSVKLVSQDSASPLSLTFRVNSEKPINEILDSEGKNLIIFQIDPSNETIQIVQSDTCPSVDELYIDLPGPSYTIFRQGDSSFFIYSCPSGSKVKDRMIYASNKNGFINYLKNDQKIAFSKVVEIGDFVELDKSLLMATNKEDSLDHGSNPDLPNKSNLKFNKPKGPLRKRRT
B5: MMP2 110-660 (Homo sapiens, UniProt P08253); sequence looked up; chain YNFFPRKPKWDKNQITYRIIGYTPDLDPETVDDAFARAFQVWSDVTPLRFSRIHDGEADIMINFGRWEHGDGYPFDGKDGLLAHAFAPGTGVGGDSHFDDDELWTLGEGQVVRVKYGNADGEYCKFPFLFNGKEYNSCTDTGRSDGFLWCSTTYNFEKDGKYGFCPHEALFTMGGNAEGQPCKFPFRFQGTSYDSCTTEGRTDGYRWCGTTEDYDRDKKYGFCPETAMSTVGGNSEGAPCVFPFTFLGNKYESCTSAGRSDGKMWCATTANYDDDRKWGFCPDQGYSLFLVAAHEFGHAMGLEHSQDPGALMAPIYTYTKNFRLSQDDIKGIQELYGASPDIDLGTGPTPTLGPVTPEICKQDIVFDGIAQIRGEIFFFKDRFIWRTVTPRDKPMGPLLVATFWPELPEKIDAVYEAPQEEKAVFFAGNEYWIYSASTLERGYPKPLTSLGLPPDVQRVDAAFNWSKNKKTYIFAGDKFWRYNEVKKKMDPGFPKLIADAWNAIPDNLDAVVDLQGGGHSYFFKGAYYLKLENQSLKSVKFGSIKSDWLGC
B6: SGIP1 69-156 S95C (mouse, UniProt Q8VD37); Alexa Fluor 488 label; chain AEIDWERYNSPELDEEGYSIRPEEPGCTKGKHFYSSSESEEEEESHKKFNIKIKPLQSKDVLKNAATVDELKASIGNIALSPSPVRKS
B7: RAP1A 1-166 (Homo sapiens, UniProt P62834); sequence looked up; chain MREYKLVVLGSGGVGKSALTVQFVQGIFVEKYDPTIEDSYRKQVEVDCQQCMLEILDTAGTEQFTAMRDLYMKNGQGFALVYSITAQSTFNDLQDLREQILRVKDTEDVPMILVGNKCDLEDERVVGKEQGQNLARQWCNCAFLESSAKSKINVNEIFYDLVRQIN
B8: GIGYF1 33-103 E44A/E45F/Q87A (Homo sapiens, UniProt O75420); chain KYKLADYRYGRAFMLALYVKENKVPEELQDKEFAAVLQDEPLQPLALEPLTEEEARNFSLSVNSVAVLRLM
B9: NR3C1 98-525 (Homo sapiens, UniProt P04150); pyrene label; chain MGNDLGFPQQGQISLSSGETDLKLLEESIANLNRSTSVPENPKSSASTAVSAAPTEKEFPKTHSDVSSEQQHLKGQTGTNGGNVKLYTTDQSTFDILQDLEFSSGSPGKETNESPWRSDLLIDENCLLSPLAGEDDSFLLEGNSNEDCKPLILPDTKPKIKDNGDLVLSSPSNVTLPQVKTEKEDFIELCTPGVIKQEKLGTVYCQASFPGANIIGNKMSAISVHGVSTSGGQMYHYDMNTASLSQQQDQKPIFNVIPPIPVGSENWNRCQGSGDDNLTSLGTLNFPGRTVFSNGYSSPSMRPDVSSPPSSSSTATTGPPPKLCLVCSDEASGCHYGVLTCGSCKVFFKRAVEGQHNYLCAGRNDCIIDKIRRKNCPACRYRKCLQAGMNLEARKTKKKIKGIQQATTGVSQETSENPGNKTIVPATL
B10: HCK 78-138 (Homo sapiens, UniProt P08631); chain SEDIIVVALYDYEAIHHEDLSFQKGDQMVVLEESGEWWKARSLATRKEGYIPSNYVARVDS

`FGA (Homo sapiens, UniProt P02671)` — result for cross-linked residues: “K243 to K206” (WDR17 (Homo sapiens, UniProt Q8IZU2); cross-linking MS; added: DSSO).
With `GSGAGKETEC` the binding intensity was 0.425 (human SCRIB PDZ3-4 tandem (MBP fusion); automated holdup; peptide, purified PDZ protein; concentration not given, unit not given; reference: biotin control resin, higher = stronger binding).
The Kd of `STIM1 (UniProt Q13586)` is reported as 2.6 µM (ERO1A (Homo sapiens, UniProt Q96HE7); BLI).
`B1 (CFH 1108-1231 R1203S)` gave a Kd of 13.7 ± 0.3 µM (C3 996-1303 (Homo sapiens, UniProt P01024); SPR).
For `B2 (PLXND1 1553-1678 S1614V/T1615A)`, the Kd was 4.13 ± 0.07 µM (RND2 1-227 (Homo sapiens, UniProt P52198); SPR).
With `LVGWHRSYYTWN (LVG-TR3 peptide; Fam label)` the Kd was 1.37 µM (CD274 (Homo sapiens, UniProt Q9NZQ7); flow cytometry; peptide, MDA-MB-231; apparent, on cells).
`DAMGO, D-Ala2; N-MePhe4; C-terminal Gly-ol` gave a Kd of 0.00172 µM (OPRM1 (Homo sapiens, UniProt P35372); radioligand binding; membranes; saturation).
`colistin` has an MIC of ≤ 0.5 mg/L (Escherichia coli; broth microdilution; clinical isolate RKI-No_513/16).
With `petF ferredoxin (Synechocystis sp. PCC 6803, UniProt P27320)` the Kd was 16.8 ± 2.6 µM (narB D163E (Synechococcus sp. PCC 7942); UV-visible difference titration).
For `ACYGPYYVLCSG (MP4.3; one disulfide ring)`, the Kd was 0.369 µM (CA2 (Bos taurus, UniProt P00921); flow cytometry; peptide).
`ARTKQTARKSTGGKAY (H3C1 1-15; K4me3)` gave a Kd of 93.5 µM (T1, ATRX ADD domain 167-289 K251R/F284Y (Homo sapiens); ITC; peptide).
The Kd of `GLP-1/MC4 receptor agonist chimeric peptide, D-Ser position 2` is reported as 0.647 µM (MC3R (Homo sapiens, UniProt P41968); radioligand binding).
`B3 (Pigr 19-135)` gave a Kd of 0.81 µM (IgA Fc/J chain CH2-CH3 domains D137A (Mus musculus); SPR).
With `Adgrb1 fragment (Mus musculus)` the Kd was 0.03 µM (RTN4RL2 extracellular domain (Mus musculus, UniProt Q7M6Z0); SPR).
With `SCN2A fragment R1917A (Homo sapiens) (sequence not shown)` the Kd was 0.499 µM (CALM1 (Homo sapiens, UniProt P0DP23); fluorescence titration; added: CaCl2).
With `GSGAGHETIV` the binding intensity was 0.445 (human SCRIB PDZ3-4 tandem (MBP fusion); automated holdup; peptide, crude extract; concentration not given, corrected by standard peak, unit not given; reference: biotin control resin, higher = stronger binding).
With `B4 (TWF1)` the Kd was 0.128 ± 0.021 µM (ACTA1 F-actin filaments, Alexa-488 label (Oryctolagus cuniculus, UniProt P68135); single-molecule TIRF).
`PUX5 (Arabidopsis thaliana, UniProt Q7Y175)` gave a Kd of 3.6 ± 0.3 µM (CDC48A 1-463 (Arabidopsis thaliana, UniProt P54609); ITC; 25 °C).
The Kd of `KRRQKSMTDFYHSKR (CDKN1A residues 141-155 T145K; C-terminal amide)` is reported as 0.098 µM (PCNA (Homo sapiens, UniProt P12004); SPR; peptide).
`B5 (MMP2 110-660)` gave a Kd of 0.0322 µM (TLR2 21-588 (UniProt O60603); SPR; 25 °C).
`B6 (SGIP1 69-156 S95C)` has a Kd of 0.057 µM (AP2A2/AP2B1/AP2M1/AP2S1 core, lacking appendage domains (Mus musculus); MST; with heparin).
`Histone H3.1 fragment (Homo sapiens)` has a Kd of > 100 µM (DPF2 270-391 (Homo sapiens, UniProt Q92785); ITC).
`B7 (RAP1A 1-166)` gave a Kd of 31 ± 5 µM (PREX1 (Homo sapiens, UniProt Q8TCU6); fluorescence titration; added: mant-GTP 1 µM).
For `B8 (GIGYF1 33-103 E44A/E45F/Q87A)`, the Kd was 0.0004 ± 0.0003 µM (EIF4E2 52-234 Q159S/M161D/R202E (Homo sapiens, UniProt O60573-1); ITC; peptide).
`B9 (NR3C1 98-525)` gave a Kd of 73 µM (TSG101 229-304 coiled coil, pyrene label (Homo sapiens, UniProt Q99816); fluorescence anisotropy).
With `SSECQRHLYSILCCKESSDPNSCNSTGQLMPSKMDTCSSHLNNSIYKKLLA (F2r 380-430 (Mus musculus, UniProt P30558); sequence looked up)` the Kd was 0.242 µM (MYH9 1-776 (Homo sapiens, UniProt P35579); SPR; 25 °C).
`SPTBN2 actin-binding domain H278R (sequence not shown)` has a Kd of 6.7 µM (ACTA1 F-actin (Oryctolagus cuniculus, UniProt P68135); co-sedimentation).
`KLLMIIHDRREFAKFEEEKMNAKWDTGENPIYKSAVTTVVNPKYEGK (ITGB1 752-798 K768E (Homo sapiens, UniProt P05556-1); sequence looked up)` has a Kd of 324 µM (Tln1 309-405 (Mus musculus, UniProt P26039); NMR titration).
The Kd of `B10 (HCK 78-138)` is reported as 16.8 ± 1.4 µM (PIK3R1 80-724 (Homo sapiens, UniProt P27986); ITC).

Some of these lines once more:
With `SCN2A fragment R1917A (Homo sapiens) (sequence not shown)` the Kd was 0.499 µM (CALM1 (Homo sapiens, UniProt P0DP23); fluorescence titration; added: CaCl2).
With `GSGAGHETIV` the binding intensity was 0.445 (human SCRIB PDZ3-4 tandem (MBP fusion); automated holdup; peptide, crude extract; concentration not given, corrected by standard peak, unit not given; reference: biotin control resin, higher = stronger binding).
With `B4 (TWF1)` the Kd was 0.128 ± 0.021 µM (ACTA1 F-actin filaments, Alexa-488 label (Oryctolagus cuniculus, UniProt P68135); single-molecule TIRF).
